Assay results of several laboratories.
A part holds a random share of what one study measured.
Sequence of UniProt P29597 (whole entry, looked up): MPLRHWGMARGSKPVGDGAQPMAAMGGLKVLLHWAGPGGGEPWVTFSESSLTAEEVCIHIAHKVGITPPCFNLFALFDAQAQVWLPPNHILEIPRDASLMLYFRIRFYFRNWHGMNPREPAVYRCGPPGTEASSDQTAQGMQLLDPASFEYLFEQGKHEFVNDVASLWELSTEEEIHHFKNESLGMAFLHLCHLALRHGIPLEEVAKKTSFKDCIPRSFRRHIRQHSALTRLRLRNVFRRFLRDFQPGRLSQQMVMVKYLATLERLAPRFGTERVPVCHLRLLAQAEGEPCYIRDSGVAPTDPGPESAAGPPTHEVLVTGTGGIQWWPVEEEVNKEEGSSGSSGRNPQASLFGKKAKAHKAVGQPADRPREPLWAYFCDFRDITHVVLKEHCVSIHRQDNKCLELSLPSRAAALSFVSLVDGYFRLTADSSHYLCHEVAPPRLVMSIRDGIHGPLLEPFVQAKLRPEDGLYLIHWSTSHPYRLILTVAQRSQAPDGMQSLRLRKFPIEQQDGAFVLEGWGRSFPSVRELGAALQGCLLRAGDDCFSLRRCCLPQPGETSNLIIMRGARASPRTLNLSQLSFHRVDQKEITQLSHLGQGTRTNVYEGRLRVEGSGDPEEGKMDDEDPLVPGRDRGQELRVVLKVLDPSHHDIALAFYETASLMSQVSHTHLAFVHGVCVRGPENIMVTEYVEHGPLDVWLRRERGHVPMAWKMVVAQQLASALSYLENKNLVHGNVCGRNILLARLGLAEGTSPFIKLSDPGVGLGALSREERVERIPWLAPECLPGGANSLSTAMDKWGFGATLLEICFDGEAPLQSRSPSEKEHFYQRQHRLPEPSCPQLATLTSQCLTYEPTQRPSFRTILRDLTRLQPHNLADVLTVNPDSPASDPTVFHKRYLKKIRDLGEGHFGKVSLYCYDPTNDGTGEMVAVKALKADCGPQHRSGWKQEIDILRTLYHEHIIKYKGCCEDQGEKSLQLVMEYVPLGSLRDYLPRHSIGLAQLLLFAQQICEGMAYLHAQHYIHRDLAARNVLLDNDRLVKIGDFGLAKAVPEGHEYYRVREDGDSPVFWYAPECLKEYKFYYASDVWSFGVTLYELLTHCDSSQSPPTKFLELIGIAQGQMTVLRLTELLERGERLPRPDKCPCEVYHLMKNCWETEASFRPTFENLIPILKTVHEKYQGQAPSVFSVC
Sequence of UniProt Q02156 (whole entry, looked up): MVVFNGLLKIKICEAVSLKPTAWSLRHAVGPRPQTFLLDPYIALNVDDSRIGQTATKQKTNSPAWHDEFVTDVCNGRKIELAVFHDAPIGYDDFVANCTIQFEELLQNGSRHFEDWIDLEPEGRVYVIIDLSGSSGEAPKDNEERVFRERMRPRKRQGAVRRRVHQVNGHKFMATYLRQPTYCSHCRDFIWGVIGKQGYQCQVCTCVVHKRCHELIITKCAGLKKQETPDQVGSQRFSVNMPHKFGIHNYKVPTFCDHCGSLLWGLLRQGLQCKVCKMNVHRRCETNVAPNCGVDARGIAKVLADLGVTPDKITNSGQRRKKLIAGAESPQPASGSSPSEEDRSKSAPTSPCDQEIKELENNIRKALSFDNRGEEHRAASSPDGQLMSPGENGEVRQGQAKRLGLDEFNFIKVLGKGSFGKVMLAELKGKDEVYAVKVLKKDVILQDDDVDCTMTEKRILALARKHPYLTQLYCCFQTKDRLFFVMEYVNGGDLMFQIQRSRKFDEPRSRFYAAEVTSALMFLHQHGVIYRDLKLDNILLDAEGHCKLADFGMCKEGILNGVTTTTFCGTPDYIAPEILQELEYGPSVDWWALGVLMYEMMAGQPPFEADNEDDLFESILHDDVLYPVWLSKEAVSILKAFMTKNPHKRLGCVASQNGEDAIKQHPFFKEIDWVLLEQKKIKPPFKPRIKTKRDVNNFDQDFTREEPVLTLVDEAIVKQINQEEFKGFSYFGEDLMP
Sequence of UniProt Q9NQU5 (whole entry, looked up): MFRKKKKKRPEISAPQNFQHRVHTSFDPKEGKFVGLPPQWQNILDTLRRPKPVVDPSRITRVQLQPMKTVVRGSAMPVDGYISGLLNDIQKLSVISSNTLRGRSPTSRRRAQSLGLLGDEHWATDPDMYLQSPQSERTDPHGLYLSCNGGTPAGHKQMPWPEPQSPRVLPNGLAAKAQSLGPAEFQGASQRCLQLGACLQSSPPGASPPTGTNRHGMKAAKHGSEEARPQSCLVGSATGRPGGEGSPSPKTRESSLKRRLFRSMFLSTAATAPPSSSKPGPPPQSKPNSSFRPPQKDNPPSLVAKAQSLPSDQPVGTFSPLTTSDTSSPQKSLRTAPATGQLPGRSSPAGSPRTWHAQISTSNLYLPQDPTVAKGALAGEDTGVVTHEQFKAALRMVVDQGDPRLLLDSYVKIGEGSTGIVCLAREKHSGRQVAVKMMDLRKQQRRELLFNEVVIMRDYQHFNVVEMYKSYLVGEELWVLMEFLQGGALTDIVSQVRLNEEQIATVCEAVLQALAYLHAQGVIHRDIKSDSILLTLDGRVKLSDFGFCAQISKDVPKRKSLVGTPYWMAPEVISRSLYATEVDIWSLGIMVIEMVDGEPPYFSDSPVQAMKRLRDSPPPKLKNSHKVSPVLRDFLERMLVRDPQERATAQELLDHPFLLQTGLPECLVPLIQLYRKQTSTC
Sequence of UniProt Q9HCP0 (whole entry, looked up): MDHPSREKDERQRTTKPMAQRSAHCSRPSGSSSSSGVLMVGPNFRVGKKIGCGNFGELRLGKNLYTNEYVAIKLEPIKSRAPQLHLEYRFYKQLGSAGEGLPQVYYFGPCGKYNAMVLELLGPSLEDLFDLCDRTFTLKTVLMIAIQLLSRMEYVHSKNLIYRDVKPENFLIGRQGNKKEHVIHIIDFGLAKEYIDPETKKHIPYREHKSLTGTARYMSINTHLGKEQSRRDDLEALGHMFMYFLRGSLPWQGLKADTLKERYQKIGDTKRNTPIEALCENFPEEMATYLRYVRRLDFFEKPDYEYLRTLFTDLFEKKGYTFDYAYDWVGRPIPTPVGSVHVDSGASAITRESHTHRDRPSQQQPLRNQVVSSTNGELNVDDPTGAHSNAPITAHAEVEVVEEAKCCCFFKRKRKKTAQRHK
Sequence of UniProt P07948 (whole entry, looked up): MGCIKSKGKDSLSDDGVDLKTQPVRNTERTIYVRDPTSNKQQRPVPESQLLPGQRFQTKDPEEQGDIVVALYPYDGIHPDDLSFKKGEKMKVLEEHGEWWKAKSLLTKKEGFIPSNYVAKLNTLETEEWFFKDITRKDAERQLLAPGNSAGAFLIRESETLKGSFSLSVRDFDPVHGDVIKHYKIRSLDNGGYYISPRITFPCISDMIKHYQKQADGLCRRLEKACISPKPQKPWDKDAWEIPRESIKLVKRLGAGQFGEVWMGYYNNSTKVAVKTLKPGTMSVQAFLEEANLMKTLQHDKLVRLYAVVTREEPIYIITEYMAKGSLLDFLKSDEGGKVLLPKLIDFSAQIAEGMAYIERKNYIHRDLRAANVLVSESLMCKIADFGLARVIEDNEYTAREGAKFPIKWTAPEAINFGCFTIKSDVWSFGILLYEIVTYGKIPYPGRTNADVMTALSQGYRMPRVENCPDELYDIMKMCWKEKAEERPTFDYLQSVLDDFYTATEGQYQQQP
Sequence of UniProt Q52WX2 (whole entry, looked up): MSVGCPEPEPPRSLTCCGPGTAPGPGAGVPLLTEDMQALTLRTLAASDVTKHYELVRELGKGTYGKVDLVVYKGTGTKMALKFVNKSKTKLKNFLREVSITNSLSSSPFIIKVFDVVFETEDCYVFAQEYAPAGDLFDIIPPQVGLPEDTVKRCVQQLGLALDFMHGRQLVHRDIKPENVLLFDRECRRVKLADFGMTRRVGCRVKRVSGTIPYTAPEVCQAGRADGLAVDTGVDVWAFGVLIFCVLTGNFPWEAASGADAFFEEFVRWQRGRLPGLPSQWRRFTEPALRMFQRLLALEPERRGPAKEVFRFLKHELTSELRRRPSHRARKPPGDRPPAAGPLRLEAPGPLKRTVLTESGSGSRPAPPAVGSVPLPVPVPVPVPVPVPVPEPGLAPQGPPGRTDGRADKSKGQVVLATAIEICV

Sample 1 — concentration: 0.1 µM
Compound: Cc1cc(C)c(-n2ccn3nc(-c4cccnc4)cc23)cc1NC(=O)c1cc(C#N)cc(S(F)(F)(F)(F)F)c1
| target | test | remaining binding [%] |
| --- | --- | --- |
| CDK19 (Homo sapiens, UniProt Q9BWU1) | competition binding | 90.7 |
| CDC42BPG (Homo sapiens, UniProt Q6DT37) | competition binding | 88.8 |
| EPHB2 (Homo sapiens, UniProt P29323) | cell-free assay, competition with immobilised ligand | 71.4 |
| MAP3K13 (Homo sapiens, UniProt O43283) | cell-free assay, competition with immobilised ligand | 97.9 |
| CSNK1G1 (Homo sapiens, UniProt Q9HCP0) | cell-free assay, competition with immobilised ligand | 91.1 |
| NTRK1 (Homo sapiens, UniProt P04629) | cell-free assay, competition with immobilised ligand | 74.8 |
| LYN (Homo sapiens, UniProt P07948) | cell-free assay, competition with immobilised ligand | 46 |
| STK17A (Homo sapiens, UniProt Q9UEE5) | cell-free assay, competition with immobilised ligand | 100 |
| BMPR1A (Homo sapiens, UniProt P36894) | binding, competition with immobilised ligand | 97.2 |
| PAK6 (Homo sapiens, UniProt Q9NQU5) | cell-free assay, competition with immobilised ligand | 70.1 |
| PRKCE (Homo sapiens, UniProt Q02156) | cell-free assay, competition with immobilised ligand | 100 |
| LTK (Homo sapiens, UniProt P29376) | cell-free assay, competition with immobilised ligand | 32.8 |
| Non-receptor tyrosine-protein kinase TYK2, JH1 (TYK2, Homo sapiens, UniProt P29597) | cell-free assay, competition with immobilised ligand | 76.9 |
| SBK1 (Homo sapiens, UniProt Q52WX2) | cell-free assay, competition with immobilised ligand | 82.2 |

Sample 2 — technique: RNA Bind-n-Seq; molecule type: RNA; sample: in vitro; concentration: 200 nM; setting: whole 134-nt RNA, ends assumed; added: 150 mM KCl; reference: input library; direction: higher = stronger binding
Target: Ras GTPase-activating protein-binding protein 1, full length (G3BP1, Homo sapiens, UniProt Q13283)
Sequence of UniProt Q13283 (whole entry, looked up): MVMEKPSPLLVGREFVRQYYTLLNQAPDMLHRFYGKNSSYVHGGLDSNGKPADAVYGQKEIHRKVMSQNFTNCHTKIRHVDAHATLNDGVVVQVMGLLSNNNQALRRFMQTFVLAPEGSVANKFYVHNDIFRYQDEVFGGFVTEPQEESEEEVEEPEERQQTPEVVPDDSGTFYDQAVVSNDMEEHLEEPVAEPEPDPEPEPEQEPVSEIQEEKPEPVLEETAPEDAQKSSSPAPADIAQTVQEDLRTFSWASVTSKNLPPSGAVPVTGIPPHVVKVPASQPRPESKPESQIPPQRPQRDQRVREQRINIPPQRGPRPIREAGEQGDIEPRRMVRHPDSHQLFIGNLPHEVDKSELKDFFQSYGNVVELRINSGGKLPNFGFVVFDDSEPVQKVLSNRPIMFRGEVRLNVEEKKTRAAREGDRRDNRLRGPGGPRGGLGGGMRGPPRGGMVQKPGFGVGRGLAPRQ
| Oligonucleotide | log2 enrichment |
| --- | --- |
| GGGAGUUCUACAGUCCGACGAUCGCAGGAAGUAAAAACAAAUGGAAUUGCUUCGGAUAGUGGCAGGGGUGGGGGUUGCUAAGGAAAGGGUGGGAUGGGAGUGGGUAAAGAGUUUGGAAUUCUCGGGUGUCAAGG | 0.849 |
| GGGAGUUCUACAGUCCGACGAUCCAAGUCCUGUGCUACACAUCGUAUGUACCGAAUCGGGGUGGGGUGGGGUUUGGGGAAAGUAUUAUGUUACGCCGUUCGGAUCUGCACUUCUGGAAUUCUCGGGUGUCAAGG | 0.802 |
| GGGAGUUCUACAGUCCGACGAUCCUCAAGUCCUGUGCUACACAUCGUAUGUACCGAAUCGGUUGGGUUGGGGUUGGGAAAGUAUUAUGUUACGCCGUUCGGAUCUGCACUUCCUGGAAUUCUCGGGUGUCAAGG | 0.6 |
| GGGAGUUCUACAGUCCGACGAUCAGUCCUGUGCUACACAUCGUAUGUACCGAAUCGGUUUUUGGUUUUUGGUUUUUGGGGAAAGUAUUAUGUUACGCCGUUCGGAUCUGCACUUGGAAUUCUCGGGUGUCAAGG | -1.16 |
| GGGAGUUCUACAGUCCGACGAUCUCCUGUGCUACACAUCGUAUGUACCGAAUCAAAUUUUUUUAAACCCCCCCAAAUUUAAAAAAGUAUUAUGUUACGCCGUUCGGAUCUGCAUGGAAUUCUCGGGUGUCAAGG | 0.367 |
| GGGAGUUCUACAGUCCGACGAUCCCUGUGCUACACAUCGUAUGUACCGAAUCAAACCCCCAAACCCCCCCAAAUUUUUUUAAAAAAGUAUUAUGUUACGCCGUUCGGAUCUGCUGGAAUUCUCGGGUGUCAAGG | 0.000833 |
| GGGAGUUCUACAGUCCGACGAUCGUCCUGUGCUACACAUCGUAUGUACCGAAUCAAACCCCCAAACCCAAAUUUUUUUAAAAAAGUAUUAUGUUACGCCGUUCGGAUCUGCACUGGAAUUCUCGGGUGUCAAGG | -0.121 |
| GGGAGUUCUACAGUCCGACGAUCAAGUCCUGUGCUACACAUCGUAUGUACCGAAUCGGAAAAAAAGGUGGAAAAAAAGGAAAGUAUUAUGUUACGCCGUUCGGAUCUGCACUUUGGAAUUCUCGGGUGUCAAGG | -1.46 |

Sample 3 — read-out: enzyme activity; action: inhibitor; concentration: 0.5 µM; reference: control
Target: Mitogen-activated protein kinase kinase kinase 8 (MAP3K8, Homo sapiens, UniProt P41279)
Sequence of UniProt P41279 (whole entry, looked up): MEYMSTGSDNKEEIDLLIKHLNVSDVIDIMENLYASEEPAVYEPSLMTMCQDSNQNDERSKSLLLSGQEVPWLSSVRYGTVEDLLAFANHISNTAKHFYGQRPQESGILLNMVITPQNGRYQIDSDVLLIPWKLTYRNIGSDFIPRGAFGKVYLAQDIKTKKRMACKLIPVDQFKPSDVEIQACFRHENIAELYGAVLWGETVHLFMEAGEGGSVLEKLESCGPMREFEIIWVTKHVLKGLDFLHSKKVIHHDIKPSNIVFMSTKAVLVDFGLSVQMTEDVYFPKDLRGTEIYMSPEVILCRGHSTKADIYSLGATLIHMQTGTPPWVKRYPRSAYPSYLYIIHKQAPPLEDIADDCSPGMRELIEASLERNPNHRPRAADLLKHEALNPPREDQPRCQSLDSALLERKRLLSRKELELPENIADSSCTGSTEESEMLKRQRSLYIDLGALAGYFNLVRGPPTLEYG
| SMILES | remaining activity [%] |
| --- | --- |
| NCCNc1ncc(C(N)=O)c(Nc2cccc(C(F)(F)F)c2)n1 | 94.8 |
| N#CC(C#N)=C(N)/C(C#N)=C/c1ccc(O)cc1 | 96 |
| O=C(O)c1ccc2c3c1cccc3c(=O)n1c3ccccc3nc21 | 88.3 |
| CO[C@H]1C[C@@H]2CC[C@@H](C)[C@@](O)(O2)C(=O)C(=O)N2CCCC[C@H]2C(=O)O[C@H]([C@H](C)C[C@@H]2CC[C@@H](O)[C@H](OC)C2)CC(=O)[C@H](C)/C=C(\C)[C@@H](O)[C@@H](OC)C(=O)[C@H](C)C[C@H](C)/C=C/C=C/C=C/1C | 99.8 |
| Cn1sc(=O)n(Cc2ccccc2)c1=O | 97.1 |
| CC(C)[C@H](CO)Nc1nc(Nc2cc(N)cc(Cl)c2)c2ncn(C(C)C)c2n1 | 109 |
| C#Cc1cccc(Nc2ncnc3cc(OCCOC)c(OCCOC)cc23)c1 | 91.8 |
| O=C1NC(=O)C(c2cn(CCCn3ccnc3)c3ccccc23)=C1Nc1ccccc1 | 100 |
| Cc1ccc(NC(=O)c2ccc(CN3CCN(C)CC3)cc2)cc1Nc1nc(-c2cccnc2)cs1 | 91.5 |
| Cc1cccc(-c2[nH]c(C(C)(C)C)nc2-c2ccc3c(c2)OCO3)n1 | 94.5 |
| O=C1NC(=O)C(c2cn(CCCO)c3ncccc23)=C1c1cnccn1 | 97 |
| Cc1ccc(Nc2nccc(N(C)c3ccc4c(C)n(C)nc4c3)n2)cc1S(N)(=O)=O | 95.2 |
| COc1ccc(OC)c2c(=S)c3ccccc3[nH]c12 | 111 |
| COc1cc2ncnc(Nc3ccc(Oc4ccccc4)cc3)c2cc1OC | 68.9 |
| OCC(O)CCON=C1C(c2c(O)[nH]c3ccccc23)=Nc2ccccc21 (stereo not drawn) | 123 |

Single results of other studies — technique: cross-linking MS
| Substance | partner | system | conditions | measurement | result |
| --- | --- | --- | --- | --- | --- |
| GNL3 (Homo sapiens, UniProt Q9BVP2) | CCDC86 (Homo sapiens, UniProt Q9H6F5) | cell fractions | added: DSSO | cross-linked residues | K46 to K291 |
| NGDN (Homo sapiens, UniProt Q8NEJ9) | AATF (Homo sapiens, UniProt Q9NY61) | – | hits only | interaction screen | cross-linked |

Some of these lines once more (sample 2):
| Oligonucleotide | log2 enrichment |
| --- | --- |
| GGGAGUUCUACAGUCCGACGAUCGCAGGAAGUAAAAACAAAUGGAAUUGCUUCGGAUAGUGGCAGGGGUGGGGGUUGCUAAGGAAAGGGUGGGAUGGGAGUGGGUAAAGAGUUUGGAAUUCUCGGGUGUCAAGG | 0.849 |
| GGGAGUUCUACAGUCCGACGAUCCUCAAGUCCUGUGCUACACAUCGUAUGUACCGAAUCGGUUGGGUUGGGGUUGGGAAAGUAUUAUGUUACGCCGUUCGGAUCUGCACUUCCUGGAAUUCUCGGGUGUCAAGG | 0.6 |
| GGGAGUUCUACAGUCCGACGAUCUCCUGUGCUACACAUCGUAUGUACCGAAUCAAAUUUUUUUAAACCCCCCCAAAUUUAAAAAAGUAUUAUGUUACGCCGUUCGGAUCUGCAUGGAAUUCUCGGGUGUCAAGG | 0.367 |
| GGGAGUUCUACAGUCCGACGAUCCAAGUCCUGUGCUACACAUCGUAUGUACCGAAUCGGGGUGGGGUGGGGUUUGGGGAAAGUAUUAUGUUACGCCGUUCGGAUCUGCACUUCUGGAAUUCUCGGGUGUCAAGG | 0.802 |
